Measured values of several laboratories.
Each line is one published result; not all experiments were run side by side. Numbers after ± are the reported error.
Ribonucleoside-diphosphate reductase large subunit: Ribonucleoside-diphosphate reductase large subunit (Homo sapiens, UniProt P23921)
Sequence of UniProt P23921 (whole entry, looked up): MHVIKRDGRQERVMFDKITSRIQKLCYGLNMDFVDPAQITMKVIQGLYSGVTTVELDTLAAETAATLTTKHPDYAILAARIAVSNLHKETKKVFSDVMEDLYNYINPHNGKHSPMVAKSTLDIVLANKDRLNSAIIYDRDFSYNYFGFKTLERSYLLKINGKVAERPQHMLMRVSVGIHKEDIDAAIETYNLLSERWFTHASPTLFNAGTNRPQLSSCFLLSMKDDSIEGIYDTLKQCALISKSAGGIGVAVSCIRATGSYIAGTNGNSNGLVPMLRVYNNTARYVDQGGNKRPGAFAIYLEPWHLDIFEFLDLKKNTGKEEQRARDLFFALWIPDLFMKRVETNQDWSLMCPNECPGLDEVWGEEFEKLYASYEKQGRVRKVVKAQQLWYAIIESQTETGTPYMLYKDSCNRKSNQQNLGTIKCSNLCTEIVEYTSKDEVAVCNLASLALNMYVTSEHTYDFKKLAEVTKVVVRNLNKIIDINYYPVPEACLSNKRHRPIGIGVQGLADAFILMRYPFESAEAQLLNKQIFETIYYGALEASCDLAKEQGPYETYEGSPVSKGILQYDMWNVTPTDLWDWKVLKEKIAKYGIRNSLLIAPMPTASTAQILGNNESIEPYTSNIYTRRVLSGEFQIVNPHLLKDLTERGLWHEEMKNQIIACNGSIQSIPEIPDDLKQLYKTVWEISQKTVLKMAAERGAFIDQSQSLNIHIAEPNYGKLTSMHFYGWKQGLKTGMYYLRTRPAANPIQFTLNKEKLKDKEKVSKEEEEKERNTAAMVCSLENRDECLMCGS
BCL2L1: Bcl-2-like protein 1 (BCL2L1, Homo sapiens, UniProt Q07817)
Sequence of UniProt Q07817 (whole entry, looked up): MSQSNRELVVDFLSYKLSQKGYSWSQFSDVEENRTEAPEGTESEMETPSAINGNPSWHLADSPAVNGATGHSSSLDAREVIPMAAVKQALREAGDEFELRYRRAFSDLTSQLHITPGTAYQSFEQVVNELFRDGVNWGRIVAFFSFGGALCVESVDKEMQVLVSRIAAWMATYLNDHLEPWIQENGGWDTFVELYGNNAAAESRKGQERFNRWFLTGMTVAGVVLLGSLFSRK
Methyl-accepting chemotaxis protein Tlp3 sensing domain: Methyl-accepting chemotaxis protein Tlp3, sensing domain (Campylobacter jejuni, UniProt Q0P864)
B1: calmodulin N-terminal domain; chain AEQLTEEQIAEFKEAFALFDKDGDGTITTKELGTVMRSLGQNPTEAELQDMINEVDADGNGTIDFPEFLSLMARK
Sequence of UniProt P0DMS8 (whole entry, looked up): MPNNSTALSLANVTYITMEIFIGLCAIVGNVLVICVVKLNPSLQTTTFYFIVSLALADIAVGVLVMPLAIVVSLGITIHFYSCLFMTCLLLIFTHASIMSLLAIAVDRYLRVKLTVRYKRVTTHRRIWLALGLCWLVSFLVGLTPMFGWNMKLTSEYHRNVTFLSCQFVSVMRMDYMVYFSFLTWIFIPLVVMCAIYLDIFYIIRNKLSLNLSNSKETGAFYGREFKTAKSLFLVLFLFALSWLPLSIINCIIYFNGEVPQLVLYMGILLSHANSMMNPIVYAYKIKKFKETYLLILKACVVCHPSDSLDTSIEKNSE
Sequence of UniProt P0CG47 (1-75, looked up): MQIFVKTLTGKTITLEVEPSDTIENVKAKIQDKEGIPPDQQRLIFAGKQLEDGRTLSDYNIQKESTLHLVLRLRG
Sequence of UniProt Q00987 (whole entry, looked up): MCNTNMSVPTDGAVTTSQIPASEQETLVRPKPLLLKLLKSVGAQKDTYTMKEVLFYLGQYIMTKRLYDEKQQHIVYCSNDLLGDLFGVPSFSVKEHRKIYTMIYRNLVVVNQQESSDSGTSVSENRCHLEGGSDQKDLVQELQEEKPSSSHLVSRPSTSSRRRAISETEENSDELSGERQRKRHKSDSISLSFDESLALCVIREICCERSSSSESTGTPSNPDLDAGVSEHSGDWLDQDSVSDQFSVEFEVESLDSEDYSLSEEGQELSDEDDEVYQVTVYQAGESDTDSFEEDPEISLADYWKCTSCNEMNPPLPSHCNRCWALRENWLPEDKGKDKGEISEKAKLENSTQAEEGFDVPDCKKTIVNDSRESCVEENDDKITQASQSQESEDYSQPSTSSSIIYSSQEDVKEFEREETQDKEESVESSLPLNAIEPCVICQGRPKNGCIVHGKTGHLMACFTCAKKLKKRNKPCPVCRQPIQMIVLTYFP
Sequence of UniProt Q53H96 (whole entry, looked up): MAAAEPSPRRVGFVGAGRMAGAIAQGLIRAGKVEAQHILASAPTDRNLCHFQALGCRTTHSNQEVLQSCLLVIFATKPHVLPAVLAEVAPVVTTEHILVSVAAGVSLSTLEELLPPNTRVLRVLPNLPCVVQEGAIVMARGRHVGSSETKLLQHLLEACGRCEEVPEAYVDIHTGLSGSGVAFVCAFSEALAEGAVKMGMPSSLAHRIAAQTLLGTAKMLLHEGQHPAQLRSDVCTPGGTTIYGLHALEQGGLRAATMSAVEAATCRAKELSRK
Sequence of UniProt P02649 (whole entry, unmodified, looked up): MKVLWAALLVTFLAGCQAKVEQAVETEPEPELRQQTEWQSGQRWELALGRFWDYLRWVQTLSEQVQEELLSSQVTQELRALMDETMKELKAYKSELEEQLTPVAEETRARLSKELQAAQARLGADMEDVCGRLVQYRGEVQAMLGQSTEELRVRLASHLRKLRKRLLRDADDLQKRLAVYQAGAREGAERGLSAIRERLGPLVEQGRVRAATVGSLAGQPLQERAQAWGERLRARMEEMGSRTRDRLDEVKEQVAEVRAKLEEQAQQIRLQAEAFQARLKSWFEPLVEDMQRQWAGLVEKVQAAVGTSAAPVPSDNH
Sequence of UniProt Q9BV86 (whole entry, looked up): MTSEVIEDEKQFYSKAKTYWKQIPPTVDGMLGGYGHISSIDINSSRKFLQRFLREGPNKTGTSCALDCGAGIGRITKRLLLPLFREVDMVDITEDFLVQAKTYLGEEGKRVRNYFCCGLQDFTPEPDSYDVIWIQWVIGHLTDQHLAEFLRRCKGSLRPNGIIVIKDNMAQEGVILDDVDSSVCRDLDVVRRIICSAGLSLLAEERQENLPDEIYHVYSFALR
Sequence of UniProt Q06385 (whole entry, looked up): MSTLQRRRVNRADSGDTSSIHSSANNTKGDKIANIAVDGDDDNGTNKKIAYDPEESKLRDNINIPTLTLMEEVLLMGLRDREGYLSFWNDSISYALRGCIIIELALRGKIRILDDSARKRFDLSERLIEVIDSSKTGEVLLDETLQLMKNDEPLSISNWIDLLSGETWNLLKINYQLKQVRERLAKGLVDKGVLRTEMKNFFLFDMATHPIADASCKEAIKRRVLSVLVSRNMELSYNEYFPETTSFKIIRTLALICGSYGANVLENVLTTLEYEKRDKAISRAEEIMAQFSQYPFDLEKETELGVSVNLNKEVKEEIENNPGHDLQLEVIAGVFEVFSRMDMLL
Sequence of UniProt P00921 (whole entry, looked up): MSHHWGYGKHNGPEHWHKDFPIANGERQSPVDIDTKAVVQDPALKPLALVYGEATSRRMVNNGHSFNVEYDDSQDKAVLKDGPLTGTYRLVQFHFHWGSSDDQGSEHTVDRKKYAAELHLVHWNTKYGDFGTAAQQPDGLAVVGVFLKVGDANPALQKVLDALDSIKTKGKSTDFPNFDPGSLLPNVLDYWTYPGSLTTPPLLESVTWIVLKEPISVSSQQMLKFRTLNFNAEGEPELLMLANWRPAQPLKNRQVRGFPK
Sequence of UniProt Q08460 (whole entry, looked up): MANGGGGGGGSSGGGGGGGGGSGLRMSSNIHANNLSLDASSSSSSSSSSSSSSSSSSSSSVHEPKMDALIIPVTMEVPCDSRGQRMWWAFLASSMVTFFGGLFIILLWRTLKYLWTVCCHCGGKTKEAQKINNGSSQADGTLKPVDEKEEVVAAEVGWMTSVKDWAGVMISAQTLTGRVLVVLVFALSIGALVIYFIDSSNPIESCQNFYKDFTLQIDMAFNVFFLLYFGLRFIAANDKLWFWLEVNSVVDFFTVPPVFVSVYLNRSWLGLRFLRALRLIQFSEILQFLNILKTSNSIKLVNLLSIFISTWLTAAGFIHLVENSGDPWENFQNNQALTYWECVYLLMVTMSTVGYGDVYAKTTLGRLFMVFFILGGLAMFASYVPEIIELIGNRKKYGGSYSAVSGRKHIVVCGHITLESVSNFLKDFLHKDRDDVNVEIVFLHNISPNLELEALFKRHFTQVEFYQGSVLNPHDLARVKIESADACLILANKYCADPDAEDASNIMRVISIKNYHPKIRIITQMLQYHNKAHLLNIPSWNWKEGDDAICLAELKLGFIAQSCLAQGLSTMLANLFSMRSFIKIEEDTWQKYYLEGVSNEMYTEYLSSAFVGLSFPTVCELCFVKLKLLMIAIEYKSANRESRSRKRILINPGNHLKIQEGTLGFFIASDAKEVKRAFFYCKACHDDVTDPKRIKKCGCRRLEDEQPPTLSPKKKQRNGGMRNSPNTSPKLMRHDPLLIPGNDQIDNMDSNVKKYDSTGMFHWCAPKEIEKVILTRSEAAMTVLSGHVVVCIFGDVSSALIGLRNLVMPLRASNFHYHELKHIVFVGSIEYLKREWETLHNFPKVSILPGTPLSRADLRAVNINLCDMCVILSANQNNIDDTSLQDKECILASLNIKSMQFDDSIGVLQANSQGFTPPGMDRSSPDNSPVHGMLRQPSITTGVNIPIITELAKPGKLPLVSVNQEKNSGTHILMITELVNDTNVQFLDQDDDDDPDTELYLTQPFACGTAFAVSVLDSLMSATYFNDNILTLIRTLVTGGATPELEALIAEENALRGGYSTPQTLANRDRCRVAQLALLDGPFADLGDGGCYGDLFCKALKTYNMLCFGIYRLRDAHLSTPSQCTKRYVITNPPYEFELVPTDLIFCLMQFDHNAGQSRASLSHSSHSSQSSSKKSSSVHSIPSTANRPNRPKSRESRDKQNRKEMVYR
Sequence of UniProt P06768 (whole entry, looked up): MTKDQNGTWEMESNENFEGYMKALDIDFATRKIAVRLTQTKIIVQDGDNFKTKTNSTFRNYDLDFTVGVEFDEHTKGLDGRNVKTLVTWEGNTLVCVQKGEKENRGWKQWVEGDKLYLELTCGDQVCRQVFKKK
Sequence of UniProt P69905 (whole entry, looked up): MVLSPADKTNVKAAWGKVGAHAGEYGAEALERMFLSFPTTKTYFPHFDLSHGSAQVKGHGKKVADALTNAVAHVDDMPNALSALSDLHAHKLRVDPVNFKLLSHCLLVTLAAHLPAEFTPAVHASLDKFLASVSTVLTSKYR

CN[C@H]1C(=O)N[C@@H]2Cc3ccc(cc3)Oc3cc4cc(c3O[C@@H]3O[C@H](C(=O)O)[C@@H](O)[C@H](O)[C@H]3NC(=O)CCCCCCCCC(C)C)Oc3ccc(cc3Cl)[C@@H](O)[C@@H]3NC(=O)[C@H](NC(=O)[C@@H]4NC(=O)[C@@H](NC2=O)c2cc(cc(O)c2Cl)Oc2cc1ccc2O)c1ccc(O)c(c1)-c1c(O[C@H]2O[C@H](CO)[C@@H](O)[C@H](O)[C@@H]2O)cc(O)cc1[C@@H](C(=O)NCCCN(C)C)NC3=O  Kd (Polyubiquitin-B, residues 1-75 fusion (UBB, Homo sapiens, UniProt P0CG47); SPR; 25 °C, immobilised ubiquitin fusion): 0.14 ± 0.02 µM
CC(C)c1cccc(C2(C(F)(F)F)N=N2)c1F  Kd (Ferritin light chain (FTL, Equus caballus, UniProt P02791); ligand displacement, fluorescence): 6.6 µM
CCCCCCCCCCCCCCCC(=O)OC[C@H](COP(=O)(O)OC1[C@H](O)[C@H](OP(=O)(O)O)C(OP(=O)(O)O)[C@H](OP(=O)(O)O)[C@H]1O)OC(=O)CCCCCCCCCCCCCCC (stereo partly drawn)  Kd (3-phosphoinositide-dependent protein kinase 1, PH domain (PDPK1, Homo sapiens, UniProt O15530); lipid binding, FRET competition; plasma membrane-like bilayers): 0.0002 ± 0.0001 µM
O=C(NNC(=O)c1ccccc1O)c1cccnc1  Kd (Ribonucleoside-diphosphate reductase large subunit; binding, fluorescence; pH 8): 60.6 µM
CC[C@H](C)[C@H](NC(=O)[C@H](CCCNC(=N)N)NC(=O)[C@H](CCCCN)NC(=O)[C@@H]1CCCN1C(=O)[C@@H]1CCC[N+]1(C)C)C(=O)N[C@@H](C)C(=O)N[C@@H](CCCCN)C(=O)N[C@@H](CCCNC(=N)N)C(=O)N[C@@H](CCCNC(=N)N)C(=O)N[C@@H](CO)C(=O)O  Kd (N-terminal Xaa-Pro-Lys N-methyltransferase 1 (Homo sapiens, UniProt Q9BV86); binding, isothermal titration calorimetry; pH 8.0, 25 °C): 1.3 µM
CC(=O)N[C@H]1[C@H](O[C@H]2[C@H](O)[C@@H](NC(C)=O)C(O)O[C@@H]2CO)O[C@H](CO)[C@@H](O[C@@H]2O[C@H](CO)[C@@H](O)[C@H](O)[C@H]2NC(C)=O)[C@@H]1O (stereo partly drawn)  Kd (Chitinase-3-like protein 2 (CHI3L2, Homo sapiens, UniProt Q15782); tryptophan fluorescence; pH 7.5): 32 ± 4 µM
COc1cccc2c1C(=O)c1c(O)c3c(c(O)c1C2=O)C[C@@](O)(C(C)=O)C[C@@H]3O[C@H]1C[C@H](N)[C@H](O)[C@H](C)O1  Kd (HIV-1 nucleocapsid-SL3 RNA complex; binding, ESI-FTMS; pH 7.5): 29.8 ± 1.9 µM
O=C(N/N=C/c1c(O)ccc2ccccc12)c1ccc(-n2ccccc2=O)cc1  Kd (Ribonucleoside-diphosphate reductase large subunit; binding, fluorescence): 9.7 µM
IGAQFGRFADDF  Kd (BCL2L1; yeast display titration; peptide; 2 h, pH 8.0, room temperature): 0.0013 ± 0.0003 µM
COc1ccc(-c2ccsc2)c(/C=N/NC(=O)c2ccccc2O)c1O  Kd (Ribonucleoside-diphosphate reductase large subunit; binding, fluorescence; pH 8): 30 µM
CC(C)C[C@H](N)C(=O)O  Kd (Methyl-accepting chemotaxis protein Tlp3 sensing domain; binding, thermal shift unfolding equilibrium; at To sensing domain): 949 ± 182 µM
CC(=O)N[C@@H](CC(C)C)C(=O)N[C@@H](CCCCN)C(=O)N[C@@H](CCCCN)C(=O)N[C@@H](CC(C)C)C(=O)N[C@@H](Cc1c[nH]c2ccccc12)C(=O)N[C@@H](CCCCN)C(=O)N[C@@H](CC(C)C)C(=O)N[C@@H](CC(C)C)C(=O)N[C@@H](CCCCN)C(=O)N[C@@H](CCCCN)C(=O)N[C@@H](CC(C)C)C(=O)N[C@@H](CC(C)C)C(=O)N[C@@H](CCCCN)C(=O)N[C@@H](CC(C)C)C(=O)N[C@@H](C)C(=O)NCC(N)=O  Kd (HIV-1 TAR hairpin RNA; competitive fluorescence anisotropy; pH 7.4, 20 °C, with: rhodamine-Rev peptide): 0.0098 ± 0.0007 µM
O=[N+]([O-])c1ccc2c(ccn2[C@H]2C[C@H](O)[C@@H](COP(=O)(O)OP(=O)(O)OP(=O)(O)O)O2)c1  Kd (Ribonucleoside-diphosphate reductase large subunit; binding, isothermal titration calorimetry; 25 °C, stronger site (allosteric S-site)): 44 µM
B1 (calmodulin N-terminal domain)  Kd (rat NaV1.2 IQ motif; FRET biosensor titration; pH 7.4, 22 °C, calcium-saturated, with: 1 mM CaCl2; lower limit): > 100 µM
CC(=O)N[C@@H](CC(C)C)C(=O)N[C@@H](CCCCN)C(=O)N[C@@H](CCCCN)C(=O)N[C@@H](CC(C)C)C(=O)N[C@@H](CC(C)C)C(=O)N[C@@H](CCCCN)C(=O)N[C@@H](CC(C)C)C(=O)N[C@@H](Cc1c[nH]c2ccccc12)C(=O)N[C@@H](CCCCN)C(=O)N[C@@H](CCCCN)C(=O)N[C@@H](CC(C)C)C(=O)N[C@@H](CC(C)C)C(=O)N[C@@H](CCCCN)C(=O)N[C@@H](CC(C)C)C(=O)N[C@@H](C)C(=O)NCC(N)=O  Kd (HIV-1 TAR hairpin RNA; competitive fluorescence anisotropy; pH 7.4, 20 °C, with: rhodamine-Rev peptide): 0.082 ± 0.01 µM
GGTFXGYWADLXAF (side-chain stapled)  Kd (E3 ubiquitin-protein ligase Mdm2 (MDM2, Homo sapiens, UniProt Q00987); binding, bacterial surface display flow cytometry; peptide, Escherichia coli cell surface; 3 h, on ice, propargyl ether stabilized peptide, with: propargyl ether 500 µM): 0.002 ± 0.00031 µM
CC(C)[C@H](N)C(=O)O  Kd (Methyl-accepting chemotaxis protein Tlp3 (Campylobacter jejuni, UniProt Q0P864); binding, ITC; melting temperature): 3060 ± 267 µM
COc1ccc(OCc2ccccn2)c(C=O)c1  Kd (Hemoglobin subunit alpha, with beta chain (HBA1, Homo sapiens, UniProt P69905); binding, cation-exchange HPLC-UV/Vis; kinetic Kd from koff/kon): 140 µM
O=C(N/N=C/c1cc(-c2ccsc2)ccc1O)c1ccccc1O  Kd (Ribonucleoside-diphosphate reductase large subunit; binding, fluorescence): 5.3 µM
CC(=O)N[C@H]1[C@H](O[C@H]2[C@H](O)[C@@H](O)[C@H](O[C@H]3[C@H](O)[C@@H](CO)O[C@@H](O[C@H]4[C@H](O)[C@@H](O)[C@H](O[C@H]5[C@H](O)[C@@H](CO)O[C@@H](O[C@H]6[C@H](O)[C@@H](O)[C@H](O[C@H]7[C@H](O)[C@@H](CO)OC(O)[C@@H]7NC(C)=O)O[C@@H]6C(=O)O)[C@@H]5NC(C)=O)O[C@@H]4C(=O)O)[C@@H]3NC(C)=O)O[C@@H]2C(=O)O)O[C@H](CO)[C@@H](O)[C@@H]1O[C@@H]1O[C@H](C(=O)O)[C@@H](O)[C@H](O)[C@H]1O (stereo partly drawn)  Kd (CD44 antigen (Homo sapiens, UniProt P16070); binding, ITC; pH 6.7): 24.6 µM
Nc1c2ccccc2nc2ccccc12  Kd (voltage-gated sodium channel; sodium current, open-channel pore blocker, internal perfusion voltage clamp; Doryteuthis pealeii, pronase-treated giant axon; internal drug, 50 mM Na, zero voltage): 58.6 ± 11.6 µM
Cn1nc(CC(=O)Nc2cc(S(=O)(=O)Nc3cccc(Cl)c3)ccc2O)c2ccccc2c1=O  Kd (APOE (Homo sapiens, UniProt P02649, C130R); SYPRO Orange displacement; pH 7.4, 25 °C): 8.9 ± 0.5 µM
CCCCCCCCCCCCCCCC(=O)OC[C@H](COP(=O)(O)OC1[C@H](O)[C@H](O)C(OP(=O)(O)O)[C@H](O)[C@H]1O)OC(=O)CCCCCCCCCCCCCCC (stereo partly drawn)  Kd (Vacuolar protein sorting-associated protein 74 (VPS74, Saccharomyces cerevisiae, UniProt Q06385); surface plasmon resonance; DOPC vesicles 3 mol% lipid; pH 7.5, 25 °C): 8.9 ± 0.3 µM
CC1=C(/C=C/C(C)=C\C=C\C(C)=C\CO)C(C)(C)CCC1  Kd (Retinol-binding protein 2 (Rbp2, Rattus norvegicus, UniProt P06768); binding, fluorescence titration; pH 7.4, 25 °C): 0.068 ± 0.007 µM
CCC[C@H](N)C(=O)O  Kd (Methyl-accepting chemotaxis protein Tlp3 sensing domain; binding, thermal shift unfolding equilibrium; at To sensing domain): 1580 ± 671 µM
CC(=O)N[C@@H](Cc1c[nH]c2ccccc12)C(=O)N[C@@H](CCCCN)C(=O)N[C@@H](CCCCN)C(=O)N[C@@H](CC(C)C)C(=O)N[C@@H](CC(C)C)C(=O)N[C@@H](CCCCN)C(=O)N[C@@H](CC(C)C)C(=O)N[C@@H](CC(C)C)C(=O)N[C@@H](CCCCN)C(=O)N[C@@H](CCCCN)C(=O)N[C@@H](CC(C)C)C(=O)N[C@@H](CC(C)C)C(=O)N[C@@H](CCCCN)C(=O)N[C@@H](CC(C)C)C(=O)N[C@@H](C)C(=O)NCC(N)=O  Kd (HIV-1 RRE hairpin RNA; competitive fluorescence anisotropy; pH 7.4, 20 °C, with: rhodamine-Rev peptide): 0.0025 ± 0.0003 µM
O=C(O)C(F)(F)C(F)(F)C(F)(F)C(F)(F)C(F)(F)C(F)(F)C(F)(F)C(F)(F)C(F)(F)C(F)(F)C(F)(F)C(F)(F)F  Kd (Fatty acid-binding protein, adipocyte (FABP4, Homo sapiens, UniProt P15090); ligand displacement, fluorescence): < 1 µM
NC(=O)C1=CN([C@@H]2O[C@H](COP(=O)(O)OP(=O)(O)OC[C@H]3O[C@@H](n4cnc5c(N)ncnc54)[C@H](O)[C@@H]3O)[C@@H](O)[C@H]2O)C=CC1  Kd (Pyrroline-5-carboxylate reductase 3 (PYCR3, Homo sapiens, UniProt Q53H96); binding, bisubstrate kinetics; pH 7.5, 26 °C, steady-state ordered bi bi, compound binds first): 31 ± 14 µM
CC[N+](CC)(CC)CC  Kd (maxi-KCa channel, rat; fast channel block, blocker, single-channel recording at +30 mV; external application, DTX-I substate, with: internal DTX-I 460 nM): 257 ± 10 µM
CCNC(=O)[C@H]1O[C@@H](n2cnc3c(NCCCCNC(=O)CCCCCNC(=O)COc4ccc(/C=C/c5ccc6n5[B-](F)(F)[N+]5=C(c7cccs7)C=CC5=C6)cc4)ncnc32)[C@H](O)[C@@H]1O  Kd (Adenosine receptor A3 (ADORA3, Homo sapiens, UniProt P0DMS8); NanoBRET saturation binding; HEK293 expressing Nluc-A3; 1 h, 37 °C): 0.0384 ± 0.0137 µM
COc1ccc(-c2ccccc2)c(/C=N/NC(=O)c2ccccc2O)c1O  Kd (Ribonucleoside-diphosphate reductase large subunit; binding, fluorescence): 4.8 µM
Oc1coccc1=S  Kd (Carbonic anhydrase 2, Co(II)-substituted (CA2, Bos taurus, UniProt P00921); binding, UV-vis titration; pH 7.5, deprotonated form): 320 µM
Thymosin beta-4  Kd (actin, rabbit skeletal muscle; pyrenyl actin elongation): 2 to 3 µM
IGAQLRRMADDV  Kd (BCL2L1; yeast display titration; peptide; 2 h, pH 8.0, room temperature): 0.00059 ± 9e-05 µM
CCCCCCCCCC[N+](CC)(CC)CC  Kd (Kcnma1 (Mus musculus, UniProt Q08460); ion current, blocker, inside-out patch clamp; 100 mV): 14.5 µM
CC[n+]1c(-c2ccccc2)c2cc(N)ccc2c2ccc(N)cc21  Kd (HIV-1 nucleocapsid-SL3 RNA complex; binding, ESI-FTMS; pH 7.5): 6.4 ± 0.9 µM

Repeated from above:
CC(C)[C@H](N)C(=O)O  Kd (Methyl-accepting chemotaxis protein Tlp3 (Campylobacter jejuni, UniProt Q0P864); binding, ITC; melting temperature): 3060 ± 267 µM
O=C(N/N=C/c1c(O)ccc2ccccc12)c1ccc(-n2ccccc2=O)cc1  Kd (Ribonucleoside-diphosphate reductase large subunit; binding, fluorescence): 9.7 µM
CC(C)C[C@H](N)C(=O)O  Kd (Methyl-accepting chemotaxis protein Tlp3 sensing domain; binding, thermal shift unfolding equilibrium; at To sensing domain): 949 ± 182 µM
CC(=O)N[C@H]1[C@H](O[C@H]2[C@H](O)[C@@H](NC(C)=O)C(O)O[C@@H]2CO)O[C@H](CO)[C@@H](O[C@@H]2O[C@H](CO)[C@@H](O)[C@H](O)[C@H]2NC(C)=O)[C@@H]1O (stereo partly drawn)  Kd (Chitinase-3-like protein 2 (CHI3L2, Homo sapiens, UniProt Q15782); tryptophan fluorescence; pH 7.5): 32 ± 4 µM
O=[N+]([O-])c1ccc2c(ccn2[C@H]2C[C@H](O)[C@@H](COP(=O)(O)OP(=O)(O)OP(=O)(O)O)O2)c1  Kd (Ribonucleoside-diphosphate reductase large subunit; binding, isothermal titration calorimetry; 25 °C, stronger site (allosteric S-site)): 44 µM
